Values quoted from earlier work that unrelated publications cite.
Sequence of UniProt P52564 (whole entry, looked up): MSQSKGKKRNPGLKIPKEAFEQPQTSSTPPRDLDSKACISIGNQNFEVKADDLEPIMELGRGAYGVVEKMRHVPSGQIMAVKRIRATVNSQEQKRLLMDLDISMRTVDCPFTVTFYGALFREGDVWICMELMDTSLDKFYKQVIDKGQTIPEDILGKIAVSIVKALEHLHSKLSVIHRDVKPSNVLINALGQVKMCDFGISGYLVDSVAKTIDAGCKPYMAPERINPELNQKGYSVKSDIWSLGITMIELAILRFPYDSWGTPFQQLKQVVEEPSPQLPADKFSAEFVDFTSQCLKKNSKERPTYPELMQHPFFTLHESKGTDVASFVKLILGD

SMILES | target or system | test | test system | setting | how to read | quantity | value
CC(=O)Nc1ccc(O)cc1 | – | – | human | average of reported values | – | blood-to-plasma ratio | 1.1
Cc1cc(=O)n(-c2ccccc2)n1C | – | – | human, blood | – | – | blood-to-plasma ratio | 1 ²
Nc1cc(C(F)(F)F)c(-c2nc(N3CCOCC3)nc(N3CCOCC3)n2)cn1 | MAP2K6 (Homo sapiens, UniProt P52564) | enzyme activity | – | 10 µM | reference: untreated | remaining activity | 70%
COc1ccccc1Oc1c(NS(=O)(=O)c2ccc(C(C)(C)C)cc2)nc(-c2ncccn2)nc1OCCO | – | – | human, blood | – | – | blood-to-plasma ratio | 0.48 ⁶
CN(C)C(=N)N=C(N)N | – | – | human liver failure patients | – | – | blood-to-plasma ratio | 1
CC(C)(CO)c1cc2cc(NC(=O)C3(c4ccc5c(c4)OC(F)(F)O5)CC3)c(F)cc2n1C[C@@H](O)CO | – | – | human | – | – | blood-to-plasma ratio | 0.658
O=C(O)Cc1ccccc1Nc1c(Cl)cccc1Cl | – | – | human | average of reported values | – | blood-to-plasma ratio | 0.62
CC(O)C(C)n1ncn(-c2ccc(N3CCN(c4ccc(OCC5COC(Cn6cncn6)(c6ccc(Cl)cc6Cl)O5)cc4)CC3)cc2)c1=O (stereo not drawn) | – | – | human, blood | – | – | blood-to-plasma ratio | 0.58
Cc1nn(C)cc1S(=O)(=O)NC(=O)c1ccc(-n2ccc(OCC(C)(C)C(F)(F)F)n2)nc1N1C[C@@H](C)CC1(C)C | – | – | human | – | – | blood-to-plasma ratio | 0.55

Excerpt of the above:
SMILES | target or system | test | test system | setting | how to read | quantity | value
CN(C)C(=N)N=C(N)N | – | – | human liver failure patients | – | – | blood-to-plasma ratio | 1
